Assay results pooled from the literature.
Protocols differ between the studies behind these lines. Values joined by “and” are separate records of one study, mostly repeats; a detail may differ. ± gives the spread as reported.

Compound	test	system	setting	how to read	measurement	value
O=C1NC2(CC2)COc2ncc(F)cc2[C@H]2COCCN2c2ccn3ncc1c3n2		Sprague-Dawley rat, male, liver	oral, 5 mg/kg/day, 4 weeks dosing, end of recovery		organ-to-body weight ratio	2.77 ± 0.183%
[2H]C([2H])([2H])C1(C([2H])([2H])[2H])NC(=O)N(c2ccc(F)c(C(C)(F)F)c2)C1=O		beagle dog, male and female	oral, single dose		NOAEL	≥ 150 mg/kg
CSCC[C@H](N)C(=O)N[C@@H](C)C(=O)N[C@@H](CCCNC(=N)N)C(=O)N[C@@H](CCCNC(=N)N)C(=O)N[C@@H](CC(=O)O)C(=O)N[C@@H](CCCCN)C(=O)N[C@H](C(=O)N[C@@H](CC(=O)O)C(=O)N[C@@H](Cc1ccccc1)C(=O)N[C@@H](C)C(=O)N[C@@H](CCCNC(=N)N)C(=O)N[C@@H](CCCNC(=N)N)C(=O)N[C@@H](CCCNC(=N)N)C(=O)N[C@@H](CCCNC(=N)N)C(=O)NCCCCCC(=O)NCCCCC(NC(=O)CCCCCNC(=O)[C@H](CCCNC(=N)N)NC(=O)[C@H](CCCNC(=N)N)NC(=O)[C@H](CCCNC(=N)N)NC(=O)[C@H](CCCNC(=N)N)NC(=O)[C@H](C)NC(=O)[C@H](Cc1ccccc1)NC(=O)[C@H](CC(=O)O)NC(=O)[C@@H](NC(=O)[C@H](CCCCN)NC(=O)[C@H](CC(=O)O)NC(=O)[C@H](CCCNC(=N)N)NC(=O)[C@H](CCCNC(=N)N)NC(=O)[C@H](C)NC(=O)[C@@H](N)CCSC)[C@@H](C)O)C(=O)NCCCCC(NC(=O)C(CCCCNC(=O)CCCCCNC(=O)[C@H](CCCNC(=N)N)NC(=O)[C@H](CCCNC(=N)N)NC(=O)[C@H](CCCNC(=N)N)NC(=O)[C@H](CCCNC(=N)N)NC(=O)[C@H](C)NC(=O)[C@H](Cc1ccccc1)NC(=O)[C@H](CC(=O)O)NC(=O)[C@@H](NC(=O)[C@H](CCCCN)NC(=O)[C@H](CC(=O)O)NC(=O)[C@H](CCCNC(=N)N)NC(=O)[C@H](CCCNC(=N)N)NC(=O)[C@H](C)NC(=O)[C@@H](N)CCSC)[C@@H](C)O)NC(=O)CCCCCNC(=O)[C@H](CCCNC(=N)N)NC(=O)[C@H](CCCNC(=N)N)NC(=O)[C@H](CCCNC(=N)N)NC(=O)[C@H](CCCNC(=N)N)NC(=O)[C@H](C)NC(=O)[C@H](Cc1ccccc1)NC(=O)[C@H](CC(=O)O)NC(=O)[C@@H](NC(=O)[C@H](CCCCN)NC(=O)[C@H](CC(=O)O)NC(=O)[C@H](CCCNC(=N)N)NC(=O)[C@H](CCCNC(=N)N)NC(=O)[C@H](C)NC(=O)[C@@H](N)CCSC)[C@@H](C)O)C(N)=O)[C@@H](C)O (stereo partly drawn)		C57BL/6 mouse female, uterus	dose not given, 3 h	reference: total	tissue distribution	3% and 1.28% and 0.93%
O=C(O)CC[C@H](NC(=O)[C@H](CCC(=O)O)NC(=O)[C@H](CCC(=O)O)NC(=O)[C@H](CCC(=O)O)NC(=O)[C@H](CCC(=O)O)NC(=O)CNC(=O)[C@H](CCC(=O)O)NC(=O)CNC(=O)[C@H](CCC(=O)O)NC(=O)[C@@H](Cc1ccccc1)NC(=O)[C@@H](Cc1ccccc1)NC(=O)Cc1ccc2ccccc2c1)C(=O)O	circular dichroism	PBS	500 µM, pH 7, above CMC		second negative CD peak wavelength	212 nm
C/C(=N\OCCCN1CCCCC1)c1ccc(C(F)(F)F)cc1		C57BL/6 mouse, plasma	intravenous, 5 mg/kg, 0.5 h		plasma concentration	280 ± 12.3 ng/mL
CC(C)NCCCn1c(Sc2cc3c(cc2I)OCO3)nc2c(N)ncnc21		human patients, plasma	up to 400 mg/m^2 single dose, 5 min to 72 h, dose escalation, mean		AUC	~100 µM·h
C[C@@H]1COCCN1c1nc(NCc2cccnc2C(F)(F)F)c2cccnc2n1	metabolic stability	dog, hepatocytes			hepatocyte CLint	3.5 µL/min/10⁶ cells
CC[C@H](C)[C@H](NC(=O)[C@H](CCCCN)NC(=O)CNC(=O)[C@H](CC(C)C)NC(=O)[C@H](Cc1ccccc1)NC(=O)[C@H](CCCCN)NC(=O)[C@H](CO)NC(=O)[C@H](Cc1ccccc1)NC(=O)[C@H](Cc1c[nH]c2ccccc12)NC(=O)[C@H](CCC(N)=O)NC(=O)[C@@H](NC(=O)[C@H](Cc1ccccc1)NC(=O)CCCCCNC(=O)CN1CCN(CC(=O)O)CCN(CC(=O)O)CCN(CC(=O)O)CC1)C(C)C)C(=O)N[C@@H](CCC(=O)O)C(=O)N1CCC[C@H]1C(=O)N[C@@H](CC(=O)O)C(=O)N[C@H](C(=O)N[C@@H](CO)C(=O)N[C@@H](CCC(N)=O)C(=O)N[C@H](C(=O)N[C@@H](CCC(N)=O)C(=O)N[C@@H](CC(=O)O)C(=O)N1CCC[C@H]1C(=O)N[C@@H](CC(N)=O)C(=O)N[C@@H](CC(=O)O)C(=O)N[C@@H](CCC(N)=O)C(=O)N[C@@H](Cc1ccc(O)cc1)C(=O)N[C@@H](CCC(=O)O)C(=O)N1CCC[C@H]1C(=O)N[C@@H](Cc1ccccc1)C(=O)O)C(C)C)C(C)C [copper-64 labelled]		C57BL/6 mice, male, tumour-free, heart	4 h		tissue uptake	2.62 ± 0.2 %ID/g
CCCCCCCCCCCCCCCC(=O)N[C@@H](CCC(=O)NCCOCCOCCC(=O)NCCOCCOCCC(=O)NCCCC[C@H](NC(=O)[C@H](CC(=O)O)NC(=O)[C@H](CC(C)C)NC(=O)[C@H](Cc1ccc(O)cc1)NC(=O)[C@H](CCCCN)NC(=O)[C@H](CO)NC(=O)[C@H](Cc1ccc(O)cc1)NC(=O)[C@H](CC(=O)O)NC(=O)[C@H](CO)NC(=O)[C@@H](NC(=O)[C@H](Cc1ccccc1)NC(=O)[C@@H](NC(=O)CNC(=O)[C@H](CCC(N)=O)NC(=O)[C@@H](CO)NC(=O)[C@@H](N)Cc1c[nH]cn1)[C@@H](C)O)[C@@H](C)O)C(=O)N[C@@H](CCCNC(=N)N)C(=O)N[C@@H](CCCNC(=N)N)C(=O)N[C@@H](C)C(=O)N[C@@H](CCC(N)=O)C(=O)N[C@@H](CC(=O)O)C(=O)N[C@@H](Cc1ccccc1)C(=O)N[C@H](C(=O)N[C@@H](CCC(N)=O)C(=O)N[C@@H](Cc1c[nH]c2ccccc12)C(=O)N[C@@H](CC(C)C)C(=O)N[C@@H](CC(C)C)C(=O)N[C@@H](CC(N)=O)C(=O)N[C@H](C(=O)NCC(=O)NCC(=O)N1CCC[C@H]1C(=O)N[C@@H](CO)C(=O)N[C@@H](CO)C(=O)NCC(=O)N[C@@H](C)C(=O)N1CCC[C@H]1C(=O)N1CCC[C@H]1C(=O)N1CCC[C@H]1C(=O)N[C@@H](CO)C(N)=O)[C@@H](C)O)C(C)C)C(=O)O	refers to: AST	rhesus monkey, female	subcutaneous, 60 µg/kg once daily, 28 days		serum enzyme activity	46.6 ± 13.4 U/L
CC(C)[C@H](NC(=O)[C@H](Cc1c[nH]c2ccccc12)NC(=O)[C@H](CCCNC(=N)N)NC(=O)[C@H](CCCNC(=N)N)NC(=O)[C@@H](NC(=O)[C@@H](NC(=O)[C@H](CCCNC(=N)N)NC(=O)[C@@H](NC(=O)[C@@H](NC(=O)[C@H](CCCNC(=N)N)NC(=O)[C@H](CCCNC(=N)N)NC(=O)[C@@H](NC(=O)[C@H](Cc1c[nH]c2ccccc12)NC(=O)[C@H](CCCNC(=N)N)NC(=O)[C@H](CCCNC(=N)N)NC(=O)[C@@H](NC(=O)[C@H](CCCNC(=N)N)NC(=O)[C@H](CCCNC(=N)N)NC(=O)[C@@H](NC(=O)[C@H](Cc1c[nH]c2ccccc12)NC(=O)[C@H](CCCNC(=N)N)NC(=O)[C@@H](N)CCCNC(=N)N)C(C)C)C(C)C)C(C)C)C(C)C)C(C)C)C(C)C)C(C)C)C(=O)N[C@@H](CCCNC(=N)N)C(=O)N[C@@H](CCCNC(=N)N)C(=O)O	refers to: kidney	mice	intravenous, 30 mg/kg	reference: body weight	organ weight	1.44%
CC(C)C[C@@H](NC(=O)[C@@H](CCCNC(=N)N)NC(=O)[C@@H](Cc1c[nH]cn1)NC(=O)[C@@H](Cc1c[nH]c2ccccc12)NC(=O)[C@@H](Cc1c[nH]cn1)NC(=O)[C@@H](Cc1ccccc1)NC(=O)[C@H](NC(=O)[C@@H](Cc1ccc(O)cc1)NC(=O)CNC(=O)CNC(=O)CCOCCOCCOCCNC(=O)CN1CCN(CC(=O)O)CCN(CC(=O)O)CC1)[C@H](C)O)C(=O)N[C@H](CC(N)=O)C(=O)N1CCC[C@@H]1C(=O)O [gallium-68 labelled]		C57BL/6 mice, male	intravenous, 1.85 MBq, 60 min	reference: tumour over heart	tissue ratio	5.66 ± 0.68
COCC1CN(C2CCN(c3cc(OC)c(Nc4ncc(Br)c(Nc5ccc6c(c5P(C)(C)=O)OCCO6)n4)cc3C)CC2)C1		human patients	oral, 150 mg once daily		treatment-related deaths	0%

For quick reference, copied from above:
Compound	test	system	setting	how to read	measurement	value
CCCCCCCCCCCCCCCC(=O)N[C@@H](CCC(=O)NCCOCCOCCC(=O)NCCOCCOCCC(=O)NCCCC[C@H](NC(=O)[C@H](CC(=O)O)NC(=O)[C@H](CC(C)C)NC(=O)[C@H](Cc1ccc(O)cc1)NC(=O)[C@H](CCCCN)NC(=O)[C@H](CO)NC(=O)[C@H](Cc1ccc(O)cc1)NC(=O)[C@H](CC(=O)O)NC(=O)[C@H](CO)NC(=O)[C@@H](NC(=O)[C@H](Cc1ccccc1)NC(=O)[C@@H](NC(=O)CNC(=O)[C@H](CCC(N)=O)NC(=O)[C@@H](CO)NC(=O)[C@@H](N)Cc1c[nH]cn1)[C@@H](C)O)[C@@H](C)O)C(=O)N[C@@H](CCCNC(=N)N)C(=O)N[C@@H](CCCNC(=N)N)C(=O)N[C@@H](C)C(=O)N[C@@H](CCC(N)=O)C(=O)N[C@@H](CC(=O)O)C(=O)N[C@@H](Cc1ccccc1)C(=O)N[C@H](C(=O)N[C@@H](CCC(N)=O)C(=O)N[C@@H](Cc1c[nH]c2ccccc12)C(=O)N[C@@H](CC(C)C)C(=O)N[C@@H](CC(C)C)C(=O)N[C@@H](CC(N)=O)C(=O)N[C@H](C(=O)NCC(=O)NCC(=O)N1CCC[C@H]1C(=O)N[C@@H](CO)C(=O)N[C@@H](CO)C(=O)NCC(=O)N[C@@H](C)C(=O)N1CCC[C@H]1C(=O)N1CCC[C@H]1C(=O)N1CCC[C@H]1C(=O)N[C@@H](CO)C(N)=O)[C@@H](C)O)C(C)C)C(=O)O	refers to: AST	rhesus monkey, female	subcutaneous, 60 µg/kg once daily, 28 days		serum enzyme activity	46.6 ± 13.4 U/L
